Experimental data collected from several papers.
Lines come from different studies, so protocols differ.
Target: cAMP-dependent protein kinase catalytic subunit beta (PRKACB, Homo sapiens, UniProt P22694)

`C=CC(=O)N1CCCC(n2c(=O)c3ncccc3n(Cc3ccc(Oc4ccccc4)cc3)c2=O)C1` (stereo not drawn) has a remaining binding of 100% (cell-free assay, competition with immobilised ligand; 1 µM).
`CNC1C[S+]2CC[S+]3CC[S+](C1)[Ru-4]321([N]=C=S)[n]2c3ccc(OC)cc3c3c4c(c5cc(F)c[n+]1c5c32)C(=O)NC4=O` (stereo not drawn) gave a remaining binding of 86% (KinomeScan; 0.1 µM; relative to: untreated).
`Cc1cccc(O[C@H]2CCC[C@@H](C(C)CNCc3ccncc3)C2)c1` (relative stereo) gave an inhibition of 2% (enzyme activity, inhibitor; 1 µM).
Under “activity vs control”, `CNC(=O)C[C@H](Cc1ccc(C#N)cc1)NC(=O)c1cc(-c2ccc(CN[C@H](C)c3ccc(C)cc3)o2)ccc1Cl` is recorded as 89% (enzyme activity, inhibitor; 1 µM).
`Cc1ccc(-c2c(/C=C(\C#N)C(=O)NC(C)C)n(CCCO)c3ncnc(N)c23)cc1` has a remaining binding of 100% (cell-free assay, competition with immobilised ligand; 1 µM).
For `CC(C)=CC1OC(C)(C)C2C=C3C(=O)C(Cl)=CC(O)C3C3C(O)C4OC4C(=O)C132` (stereo not drawn), the remaining binding was 98% (cell-free assay, competition with immobilised ligand; 10 µM).
For `CNC(=O)C1CCN(c2cc(C)c(F)cc2NC(=O)c2ccc(-c3cc(O)ccc3C)c(C)c2)CC1`, the remaining binding was 99% (binding, competition with immobilised ligand; 1 µM).
`NC(=O)[C@@H](O)C[C@H]1CCc2sc3ncnc(O[C@H]4CC[C@H](N5CCOCC5)CC4)c3c21` has an inhibition of 12% (enzyme activity, inhibitor; 10 µM).
The remaining binding of `CCN1CCN(Cc2ccc(C(=O)Nc3ccc(C)c(NCc4cnc5[nH]ccc5c4OC)c3)cc2C(F)(F)F)CC1` is reported as 62% (binding, competition with immobilised ligand; 1 µM).
For `Cc1c[nH]c2nccc(-c3ccc(C(=O)N[C@@H]4c5c(F)cc(C(F)F)cc5C[C@@H]4O)cn3)c12`, the remaining binding was 0.7% (binding, competition with immobilised ligand; 3 µM).
For `C=CC(=O)Nc1cccc(-c2cnc3[nH]cc(C(=O)NC(C)(C)C)c3n2)c1`, the inhibition was 3% (enzyme activity, inhibitor; 0.1 µM).
With `Nc1ncc(-c2cc(-c3cnn(CC(F)(F)F)c3)ncc2F)nc1C(=O)NC1CNCC(F)C1` (stereo not drawn) the remaining activity was 103% (enzyme activity; 1 µM; relative to: DMSO control).

Some of these lines once more:
Under “activity vs control”, `CNC(=O)C[C@H](Cc1ccc(C#N)cc1)NC(=O)c1cc(-c2ccc(CN[C@H](C)c3ccc(C)cc3)o2)ccc1Cl` is recorded as 89% (enzyme activity, inhibitor; 1 µM).
